{"data": "Published values from different studies", "note": "A part holds a random share of what one study measured. Positions count from the first letter of the parent shown."}
{"data": "Study 1", "target": "CCNB3, cyclin fold, Cln2 fusion (human)", "method": "yeast growth competition, sequencing", "medium": "yeast", "setting": "weak parent motif", "reference": "not given", "reading": "higher = stronger binding", "starting sequence": "CDC6 docking peptide (human); TLKGRRLVFDNQL; partner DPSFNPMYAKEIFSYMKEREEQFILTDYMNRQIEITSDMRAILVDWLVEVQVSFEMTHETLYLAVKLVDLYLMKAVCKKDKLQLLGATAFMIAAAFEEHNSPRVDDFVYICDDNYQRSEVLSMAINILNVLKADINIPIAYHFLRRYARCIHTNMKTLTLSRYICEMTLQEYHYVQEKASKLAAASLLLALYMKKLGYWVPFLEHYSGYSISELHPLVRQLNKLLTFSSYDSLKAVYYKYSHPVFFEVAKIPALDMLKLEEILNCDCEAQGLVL"}
{"Substitution": "LLKGRRLVFDNQL [T1L]", "normalised enrichment score": 0.0506}
{"Substitution": "TLKGRRLVFDNQK [L13K]", "normalised enrichment score": -0.324}
{"Substitution": "TLKGRRLVFDRQL [N11R]", "normalised enrichment score": 0.459}
{"Substitution": "TLKGERLVFDNQL [R5E]", "normalised enrichment score": 0.0465}
{"Substitution": "TLKGRRLQFDNQL [V8Q]", "normalised enrichment score": -0.195}
{"data": "Study 2", "target": "Histone acetyltransferase KAT6A, winged helix 1, GST fusion (KAT6A, Homo sapiens, UniProt Q92794, residues 1-85)", "method": "protein binding microarray", "molecule type": "double-stranded DNA, one strand shown", "medium": "in vitro", "concentration": "not given", "setting": "8-mer, flanks averaged, mean of 2 arrays, mostly near background", "reference": "not given", "reading": "higher = stronger binding", "Construct (chain)": "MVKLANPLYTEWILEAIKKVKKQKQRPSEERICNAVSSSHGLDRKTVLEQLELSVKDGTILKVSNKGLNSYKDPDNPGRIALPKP"}
{"Oligonucleotide": "AATCGTCT", "E-score": 0.0211}
{"Oligonucleotide": "GTTCAATA", "E-score": -0.135}
{"Oligonucleotide": "CGGTAAAC", "E-score": 0.243}
{"Oligonucleotide": "ATCCTTTG", "E-score": -0.148}
{"Oligonucleotide": "CTCACAGC", "E-score": -0.233}
{"Oligonucleotide": "CACAACCC", "E-score": -0.0443}
{"Oligonucleotide": "GAACCCCC", "E-score": 0.102}
{"data": "Study 3", "target": "RNA binding protein fox-1 homolog 2, RRM domain, GST-SBP tag (RBFOX2, Homo sapiens, UniProt O43251-10, residues 100-194)", "method": "RNA Bind-n-Seq", "molecule type": "RNA", "medium": "in vitro", "concentration": "365 nM", "setting": "natural RNA segment, single round, ends assumed", "reference": "no-protein control", "reading": "higher = stronger binding", "all sequences stand within": "GGGAGUUCUACAGUCCGACGAUC … UGGAAUUCUCGGGUGCCAA", "Construct (chain)": "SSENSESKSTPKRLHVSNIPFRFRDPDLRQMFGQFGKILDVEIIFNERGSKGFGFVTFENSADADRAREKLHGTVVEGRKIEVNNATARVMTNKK"}
{"Oligonucleotide": "UGAGAUUUUUCAAGCUGUGCUUUGUGUGUGUGCCAGUAGACUUACGCAAGGACAGGGUACAAACUUAGCUGGAAGUCUGCCCAGGCUGAAUGAUCUCUUCCCUAGAGUUG", "RBNS enrichment (R)": 0.55}
{"Oligonucleotide": "GCACGUCUUUAAUCCCAGCACUUGGGAGGCAGGCAGAGAUAGGCGGAUUUCUGAGUUUGAGGCCAGCCUGGUCUACAGAGUGAGUUCGAGGACAACCAGGGCUACACAGA", "RBNS enrichment (R)": 0.281}
{"Oligonucleotide": "UGCUCUGCCAGGGCUGUAGCCAGGCAGGGCCCUAAGCCAGGGCUCCUGGACCCAGGCUUUCCCAUACCACGGGCCCAGGACUGUGGCUCCUUUUCUAAACCACCUCUGGG", "RBNS enrichment (R)": 0.318}
{"Oligonucleotide": "GGAAAUAGAACCUAAACACAUGCCCAGAAGUCCUGGUUCAAAAGCUUUACUAUGGAGCCUGCAUAUGAAGCCACCUCUGGCUUCUACAGAAGGAGGCCCUGGCUGCUCCA", "RBNS enrichment (R)": 0.236}
{"Oligonucleotide": "ACGCUUGUUAAAGGCUAUUUUCUAUAUUUAUUGUUGGGAAAAGUCACUUUAAAGACUUGUGCUAUUUGGAAGCAAAGCUAUUUUUUUUGUCAGUGGAAUGCAGUUUUUUU", "RBNS enrichment (R)": 1.62}
{"Oligonucleotide": "UCGGCCUUUGAUCUGGCCAAGUCUUAGAGAAUGUUGUAGAUGGGGGUUAAGAGAACCAUUUAAAGUAUUUUGUUCAUUAAAUGCCUCUUUCCAAAAAUGGAAGAUCCAAA", "RBNS enrichment (R)": 0.748}
{"Oligonucleotide": "AGGGAUUGAUGAAUGGGAAGAGUUGAGUCAGACCAGUAAGCCCGUCCUGGGUUCCUUGAACAUGUUCCCAUGUAGGAGGUAAAACCAAUUCUGGAAGUGUCUAUGAACUU", "RBNS enrichment (R)": 0.516}
{"data": "Mixed results"}
{"Substance": "PhoQ, residues 284 288 289 292 302 303 SLCLSL", "target": "PhoP, residues 12 14 15 18 19 NQAHL (Escherichia coli, UniProt P23836)", "assay": "Sort-seq, measured: YFP reporter", "system": "E. coli", "conditions": "PhoQ-PhoP variant library, together with: 10 µM Mg2+", "scale": "reference: high Mg2+ state, higher = stronger signaling", "measurement": "fold induction", "result": 15.9}
{"note": "Excerpt of the above (study 3):"}
{"Oligonucleotide": "GGAAAUAGAACCUAAACACAUGCCCAGAAGUCCUGGUUCAAAAGCUUUACUAUGGAGCCUGCAUAUGAAGCCACCUCUGGCUUCUACAGAAGGAGGCCCUGGCUGCUCCA", "RBNS enrichment (R)": 0.236}
{"Oligonucleotide": "ACGCUUGUUAAAGGCUAUUUUCUAUAUUUAUUGUUGGGAAAAGUCACUUUAAAGACUUGUGCUAUUUGGAAGCAAAGCUAUUUUUUUUGUCAGUGGAAUGCAGUUUUUUU", "RBNS enrichment (R)": 1.62}
{"Oligonucleotide": "UCGGCCUUUGAUCUGGCCAAGUCUUAGAGAAUGUUGUAGAUGGGGGUUAAGAGAACCAUUUAAAGUAUUUUGUUCAUUAAAUGCCUCUUUCCAAAAAUGGAAGAUCCAAA", "RBNS enrichment (R)": 0.748}
